Experimental data from different studies.
A part holds a random share of what one study measured.
Chain of UniProt Q9BYP7 (whole entry, looked up): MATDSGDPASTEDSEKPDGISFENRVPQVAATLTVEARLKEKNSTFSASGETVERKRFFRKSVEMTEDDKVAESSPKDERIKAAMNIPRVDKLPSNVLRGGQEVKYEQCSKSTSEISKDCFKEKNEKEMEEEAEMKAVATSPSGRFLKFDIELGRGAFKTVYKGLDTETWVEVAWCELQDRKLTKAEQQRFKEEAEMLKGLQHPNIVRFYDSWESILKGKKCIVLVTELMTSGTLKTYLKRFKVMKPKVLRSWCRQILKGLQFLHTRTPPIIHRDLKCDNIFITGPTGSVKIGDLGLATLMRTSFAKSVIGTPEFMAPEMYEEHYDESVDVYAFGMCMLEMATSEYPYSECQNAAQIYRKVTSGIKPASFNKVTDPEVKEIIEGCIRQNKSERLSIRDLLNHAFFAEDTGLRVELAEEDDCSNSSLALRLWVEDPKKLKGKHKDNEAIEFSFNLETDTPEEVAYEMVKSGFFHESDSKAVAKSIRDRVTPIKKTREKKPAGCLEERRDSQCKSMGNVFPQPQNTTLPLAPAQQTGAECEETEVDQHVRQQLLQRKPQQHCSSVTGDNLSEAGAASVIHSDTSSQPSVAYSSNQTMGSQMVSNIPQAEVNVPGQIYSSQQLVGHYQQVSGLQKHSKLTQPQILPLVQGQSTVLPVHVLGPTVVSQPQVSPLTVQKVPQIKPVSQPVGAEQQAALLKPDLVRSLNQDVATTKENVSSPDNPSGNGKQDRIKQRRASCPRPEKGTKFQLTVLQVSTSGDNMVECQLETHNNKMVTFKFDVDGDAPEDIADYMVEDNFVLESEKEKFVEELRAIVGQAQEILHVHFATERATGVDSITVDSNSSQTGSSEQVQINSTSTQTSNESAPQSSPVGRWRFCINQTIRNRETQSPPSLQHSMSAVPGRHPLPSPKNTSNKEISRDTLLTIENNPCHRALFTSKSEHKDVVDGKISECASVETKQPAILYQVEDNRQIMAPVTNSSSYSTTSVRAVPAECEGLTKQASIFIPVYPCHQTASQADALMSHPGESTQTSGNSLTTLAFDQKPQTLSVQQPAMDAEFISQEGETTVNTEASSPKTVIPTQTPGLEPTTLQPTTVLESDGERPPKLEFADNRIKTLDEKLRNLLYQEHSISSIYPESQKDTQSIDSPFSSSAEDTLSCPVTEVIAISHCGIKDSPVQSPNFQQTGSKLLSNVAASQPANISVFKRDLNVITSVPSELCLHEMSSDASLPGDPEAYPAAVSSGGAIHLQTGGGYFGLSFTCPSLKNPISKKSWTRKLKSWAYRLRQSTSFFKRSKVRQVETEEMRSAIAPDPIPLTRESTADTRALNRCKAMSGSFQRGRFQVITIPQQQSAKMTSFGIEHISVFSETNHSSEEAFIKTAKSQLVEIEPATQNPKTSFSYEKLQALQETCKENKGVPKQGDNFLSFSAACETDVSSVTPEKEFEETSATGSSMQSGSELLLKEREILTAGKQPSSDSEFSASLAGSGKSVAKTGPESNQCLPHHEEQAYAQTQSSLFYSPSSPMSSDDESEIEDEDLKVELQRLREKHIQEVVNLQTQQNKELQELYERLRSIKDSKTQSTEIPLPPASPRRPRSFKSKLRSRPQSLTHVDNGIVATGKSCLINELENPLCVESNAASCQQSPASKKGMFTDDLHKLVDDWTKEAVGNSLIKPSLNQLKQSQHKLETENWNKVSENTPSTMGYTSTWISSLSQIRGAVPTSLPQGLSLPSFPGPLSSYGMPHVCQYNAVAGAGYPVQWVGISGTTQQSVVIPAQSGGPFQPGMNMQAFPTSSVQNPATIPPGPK
Chain of UniProt Q9NSY1 (whole entry, looked up): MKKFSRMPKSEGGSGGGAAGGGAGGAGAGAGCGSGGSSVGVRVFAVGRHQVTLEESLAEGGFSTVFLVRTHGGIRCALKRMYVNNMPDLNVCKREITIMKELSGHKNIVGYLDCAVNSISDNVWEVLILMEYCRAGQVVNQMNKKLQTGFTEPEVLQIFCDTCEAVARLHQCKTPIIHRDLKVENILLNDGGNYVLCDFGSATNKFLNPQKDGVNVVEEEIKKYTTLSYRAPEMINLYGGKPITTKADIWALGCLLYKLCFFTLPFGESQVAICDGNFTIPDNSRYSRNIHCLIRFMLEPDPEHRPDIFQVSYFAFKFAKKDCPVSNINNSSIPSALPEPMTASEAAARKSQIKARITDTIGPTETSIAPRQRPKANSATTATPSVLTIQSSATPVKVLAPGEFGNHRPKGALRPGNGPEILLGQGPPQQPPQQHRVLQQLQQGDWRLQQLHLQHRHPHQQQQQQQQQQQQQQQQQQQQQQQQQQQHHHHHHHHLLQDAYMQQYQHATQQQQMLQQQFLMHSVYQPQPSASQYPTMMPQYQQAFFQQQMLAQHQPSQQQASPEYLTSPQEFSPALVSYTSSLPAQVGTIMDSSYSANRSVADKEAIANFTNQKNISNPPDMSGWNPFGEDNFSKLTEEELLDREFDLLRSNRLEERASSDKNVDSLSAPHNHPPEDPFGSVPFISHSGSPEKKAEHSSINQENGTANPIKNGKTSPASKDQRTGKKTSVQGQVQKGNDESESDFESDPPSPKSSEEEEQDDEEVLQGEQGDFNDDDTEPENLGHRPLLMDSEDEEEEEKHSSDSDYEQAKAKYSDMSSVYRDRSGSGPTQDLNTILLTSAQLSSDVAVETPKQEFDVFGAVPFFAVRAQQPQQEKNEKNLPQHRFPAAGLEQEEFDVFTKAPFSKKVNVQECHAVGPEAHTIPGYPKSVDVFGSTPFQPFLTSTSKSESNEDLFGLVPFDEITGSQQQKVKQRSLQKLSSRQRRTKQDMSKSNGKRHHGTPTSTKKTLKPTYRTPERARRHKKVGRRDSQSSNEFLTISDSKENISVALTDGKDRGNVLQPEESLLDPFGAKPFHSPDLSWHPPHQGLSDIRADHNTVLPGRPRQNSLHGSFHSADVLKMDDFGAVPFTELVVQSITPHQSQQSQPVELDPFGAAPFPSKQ
Chain of UniProt P45985 (whole entry, looked up): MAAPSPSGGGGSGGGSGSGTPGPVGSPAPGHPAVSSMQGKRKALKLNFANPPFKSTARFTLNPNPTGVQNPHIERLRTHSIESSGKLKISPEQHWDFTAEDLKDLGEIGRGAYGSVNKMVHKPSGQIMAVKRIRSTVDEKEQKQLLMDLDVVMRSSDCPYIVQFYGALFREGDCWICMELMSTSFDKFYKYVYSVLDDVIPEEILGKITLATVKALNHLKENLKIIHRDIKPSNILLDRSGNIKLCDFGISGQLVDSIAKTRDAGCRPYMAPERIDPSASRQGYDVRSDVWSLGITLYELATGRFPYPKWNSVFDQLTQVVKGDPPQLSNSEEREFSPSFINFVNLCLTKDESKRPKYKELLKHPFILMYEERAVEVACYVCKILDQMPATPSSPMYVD
Chain of UniProt Q8N752 (whole entry, looked up): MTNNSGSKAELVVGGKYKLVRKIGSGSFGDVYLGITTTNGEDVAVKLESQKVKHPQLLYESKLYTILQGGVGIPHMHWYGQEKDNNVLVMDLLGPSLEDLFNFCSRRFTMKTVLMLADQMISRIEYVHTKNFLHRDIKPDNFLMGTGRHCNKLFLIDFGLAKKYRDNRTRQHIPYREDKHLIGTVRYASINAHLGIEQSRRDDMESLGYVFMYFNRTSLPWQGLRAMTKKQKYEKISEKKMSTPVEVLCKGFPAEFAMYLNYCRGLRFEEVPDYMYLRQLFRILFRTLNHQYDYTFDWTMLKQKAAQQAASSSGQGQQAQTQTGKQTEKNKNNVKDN
Chain of UniProt Q9BWU1 (whole entry, looked up): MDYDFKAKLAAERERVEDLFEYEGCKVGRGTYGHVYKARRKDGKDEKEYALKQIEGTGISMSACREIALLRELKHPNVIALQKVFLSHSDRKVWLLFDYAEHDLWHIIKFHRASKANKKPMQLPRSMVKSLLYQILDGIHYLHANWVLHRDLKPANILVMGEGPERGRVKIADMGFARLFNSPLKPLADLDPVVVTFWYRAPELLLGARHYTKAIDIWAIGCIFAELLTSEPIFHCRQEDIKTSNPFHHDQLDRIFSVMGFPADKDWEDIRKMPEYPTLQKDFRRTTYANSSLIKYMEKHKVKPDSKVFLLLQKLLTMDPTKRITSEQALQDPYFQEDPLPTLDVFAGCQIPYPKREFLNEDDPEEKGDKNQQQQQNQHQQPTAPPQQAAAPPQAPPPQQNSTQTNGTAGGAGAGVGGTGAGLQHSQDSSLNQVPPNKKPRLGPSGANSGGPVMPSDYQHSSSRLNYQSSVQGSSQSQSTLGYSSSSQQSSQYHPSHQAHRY

Set 1 — species: mouse; sample: microsomes or S9; tested at: 2 µM; time: 0.5 h
| SMILES | remaining compound [%] |
| --- | --- |
| COc1ccc(-c2nc(-c3ccc(C)cc3)no2)c(OC)c1 | 65.6 |
| COc1nc(Nc2ccc3cn[nH]c3c2)nc(-n2ccnc2)n1 | 9.88 |
| CCN1CC(NC(=O)c2cc3n(n2)CCC3)CC1=O (centres unmarked) | 99.3 |
| CCCn1nc(C)c(-c2cncn2CCn2nc(C)c(C)c2C)c1C | 3.99 |
| C[C@@H]1CN(c2ccncc2F)C[C@@]1(O)C1CCC1 | 23.2 |
| Cn1cc(Br)c(=O)c(NC(=O)c2ccc(O)cc2F)c1 | 56.4 |
| Fc1ccccc1-c1cn2c3ccccc3nc2n1CCN1CCCCC1 | 0.0141 |
| Cc1ccc(N2C(=O)C(=N)c3c2sc(C)c3C)cc1 | 52 |
| CC(C)CN(CC(C)C)C(=O)Cn1nc(C(C)(C)C)ccc1=O | 0.104 |

Set 2 — technique: phase 2a trial; species: idiopathic pulmonary fibrosis patients
SMILES: CC(C)n1cnc(-c2ccc(F)cc2)c1-c1ncc(C(=O)Nc2ccc(N3CCN(C)CC3)cc2)[nH]1
| test | conditions | adverse event incidence |
| --- | --- | --- |
| item: weight decreased | dose not given, grade 4, all arms pooled | 0% |
| item: ECG ST segment abnormal | 30 mg once daily, grade 3 | 0% |
| item: ECG ST segment abnormal | dose not given, grade 2, all arms pooled | 0% |
| item: drug eruption | dose not given, grade 5, all arms pooled | 0% |
| item: hepatic enzyme abnormal | 30 mg once daily, grade 2 | 0% |
| item: carotid intima-media thickening | 60 mg once daily, grade 2 | 0% |
| item: chronic gastritis | dose not given, grade 1, all arms pooled | 0% |
| item: QRS axis abnormal | 60 mg once daily, grade 4 | 0% |
| item: liver injury | 60 mg once daily, grade 2 | 0% |
| item: liver injury | 60 mg once daily, grade 1 | 0% |
| item: allergic conjunctivitis | 60 mg once daily, grade 5 | 0% |

Set 3 — effect on: enzyme activity; action: inhibitor; tested at: 0.5 µM; relative to: control
Target: Proto-oncogene tyrosine-protein kinase Src (SRC, Homo sapiens, UniProt P12931)
| SMILES | remaining activity |
| --- | --- |
| Cc1cc2ncc(-c3ccccc3)nc2cc1C | 104% |
| C[C@@H]1CCN(C(=O)CC#N)C[C@@H]1N(C)c1ncnc2[nH]ccc12 | 99.8% |
| O=C(NC(NC(=S)Nc1ccc(F)c([N+](=O)[O-])c1)C(Cl)(Cl)Cl)C(c1ccccc1)c1ccccc1 (centres unmarked) | 96.1% |
| Cc1cn(-c2cc(NC(=O)c3ccc(C)c(Nc4nccc(-c5cccnc5)n4)c3)cc(C(F)(F)F)c2)cn1 | 95.2% |
| Nc1cccc(-c2cc3c(Oc4cccc(O)c4)ncnc3[nH]2)c1 | 2.07% |
| Ic1cccc(CSc2nnc(-c3ccncc3)o2)c1 | 101% |
| Cn1nc2c3c(cccc31)C(=O)c1ccccc1-2 | 90.7% |
| Cc1nc2cc3nc(-c4cccs4)cnc3cc2n1C | 89.9% |
| CCN(CC)C(=O)c1ccc(Nc2nc(OCC3CCCCC3)c3[nH]cnc3n2)cc1 | 72.8% |
| COc1cc2ncnc(Nc3ccc(O)c(Br)c3)c2cc1OC | 77.5% |
| O=C(Nc1cccc(Nc2nccc(Nc3cccc(C(F)(F)F)c3)n2)c1)C1CC1 | 64.5% |
| CN([C@@H](Cc1ccc(OS(=O)(=O)c2cccc3cnccc23)cc1)C(=O)N1CCN(c2ccccc2)CC1)S(=O)(=O)c1cccc2cnccc12 | 91.3% |
| CCOc1nc(NC(=O)Cc2cc(OC)ccc2OC)cc(N)c1C#N | 94.7% |
| c1ccc(-c2cnc(Nc3ccc(OCCN4CCCC4)cc3)s2)cc1 | 75.3% |
| N#Cc1c(NC(=O)c2cccc3ccccc23)sc2c1CCCC2 | 93.5% |
| CN(C)C[C@H]1CCn2c(c(C3=C(c4cn(C)c5ccccc45)C(=O)NC3=O)c3ccccc32)C1 | 101% |
| COc1cc2c(cc1OC)-c1[nH]nc(Nc3cccc(F)c3)c1C2 | 63.4% |
| CCN(CC)CCNC(=O)c1c(C)[nH]c(/C=C2\C(=O)Nc3ccc(Cl)cc32)c1C | 26% |
| O=C1C(Cl)=C(N2C(=O)CCC2=O)C(=O)c2ccccc21 | 95.1% |
| c1ccc(-c2[nH]ncc2-c2ccnc3ccccc23)nc1 | 94.7% |
| N#C/C(=C\c1ccc(O)c(O)c1)C(=O)NCc1ccccc1 | 94.8% |

Set 4 — tested at: 1 µM
Structure (SMILES): O=C(O)c1cc(-c2ccc(C3CCNCC3)cc2)c2ccc(-c3ccc(C(F)(F)F)cc3)cc2c1
| target | test | remaining binding [%] |
| --- | --- | --- |
| STK36 (Homo sapiens, UniProt Q9NRP7) | cell-free assay, competition with immobilised ligand | 100 |
| BMP2K (Homo sapiens, UniProt Q9NSY1) | cell-free assay, competition with immobilised ligand | 84 |
| ERN1 (Homo sapiens, UniProt O75460) | cell-free assay, competition with immobilised ligand | 100 |
| Non-receptor tyrosine-protein kinase TYK2, JH1 (TYK2, Homo sapiens, UniProt P29597) | cell-free assay, competition with immobilised ligand | 100 |
| HASPIN (Homo sapiens, UniProt Q8TF76) | cell-free assay, competition with immobilised ligand | 100 |
| CDK19 (Homo sapiens, UniProt Q9BWU1) | competition binding | 97 |
| NEK3 (Homo sapiens, UniProt P51956) | cell-free assay, competition with immobilised ligand | 100 |
| MAP3K6 (Homo sapiens, UniProt O95382) | cell-free assay, competition with immobilised ligand | 100 |
| CSNK1A1L (Homo sapiens, UniProt Q8N752) | cell-free assay, competition with immobilised ligand | 100 |
| MAP2K4 (Homo sapiens, UniProt P45985) | cell-free assay, competition with immobilised ligand | 100 |
| FLT3 (Homo sapiens, UniProt P36888, D835H) | cell-free assay, competition with immobilised ligand | 81 |
| EGFR (Homo sapiens, UniProt P00533, del747-750/T751S) | cell-free assay, competition with immobilised ligand | 100 |
| CHUK (Homo sapiens, UniProt O15111) | cell-free assay, competition with immobilised ligand | 87 |
| WNK3 (Homo sapiens, UniProt Q9BYP7) | cell-free assay, competition with immobilised ligand | 100 |
| CDK17 (Homo sapiens, UniProt Q00537) | cell-free assay, competition with immobilised ligand | 100 |
